# Published values collected from several papers.
# Parts stem from different laboratories: compare values within a part only.

# Study 1
# Target: Sal-like protein 4, full length isoform B (SALL4, Homo sapiens, UniProt Q9UJQ4-2, residues 1-616)
# Technique: universal PBM
# Molecule type: double-stranded DNA, one strand shown
# Sample: in vitro
# Tested at: not given
# Notes: 8-mer, flanks averaged, mean of replicates
# Reading: higher = stronger binding
Strand,E-score
CATGCTTC,0.0214
ACAACCGC,-0.121
CATTGTAG,0.0946
CAATTATC,0.233
CTTAAAGA,0.0369
ATACGCGC,-0.0673
GCGATGCA,-0.231
ATTCCGTA,0.0901
CCTGAGAA,0.0223
CAACGGCA,-0.136
TCGTCAAA,0.0838
CAGCTGCC,-0.258
GATGCAGA,-0.0603
CAAAGCCA,-0.0569
CTCTCGCC,-0.231
CTCGTCGA,-0.0718

# Study 2
# Target: RNA binding protein fox-1 homolog 2, RRM domain, GST-SBP tag (RBFOX2, Homo sapiens, UniProt O43251-10, residues 100-194)
# Technique: RNA Bind-n-Seq
# Molecule type: RNA
# Sample: in vitro
# Tested at: 365 nM
# Notes: natural RNA segment, single round, ends assumed
# Reference: no-protein control
# Reading: higher = stronger binding
# All sequences stand within: GGGAGUUCUACAGUCCGACGAUC … UGGAAUUCUCGGGUGCCAA
# Target sequence (chain): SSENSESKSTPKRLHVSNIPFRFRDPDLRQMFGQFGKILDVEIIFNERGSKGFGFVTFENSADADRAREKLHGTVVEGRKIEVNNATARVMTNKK
Strand,RBNS enrichment (R)
CUGCCCAGGAGUAGAAGCCUGUUAGCUGCCUCCAUGGGUUUUAUACAGCUCUUCUUGCUUAGUGCGGAACCCAGGGAGCUGCUCAGACUUCCACCAAAGCAAAUCUGGCU,0.251
UACACACAUGAGCCAGUUUUUCCUUAUUGUAGUGUCCUGUGAGACAGACCAGCUCCAAGCACUGCUUAGAACAACGGCUCACUCUGACCUUGCUACACAUCCAUUUGGGG,0.547
CUUGCCCCAUCUUCCUCCCAACUGGAGGCCUCUGAGCCUCCCCUGUGCCUUGGGCCCUGAAGCCCCAUAUGUAGUAUAGAGCAAAGGUGGCUCCUGGUGAAGAGAGGGUG,0.28
ACAGGUAAGGAUUACCUUCUCUAGUGGUUCUUGCGAUUUGUCUGCCUAGGUGUGCUCCAGGUUGCCUGUGGGUUUCCUUUCUGUGAUGGGAUUUAGUGUAGACAUUCUUG,0.41
AAGUUGAGGCCCAGAGAAUUUAAAGCACAUGUUCAUUUCUGUUGUCAUGGAUACAAAGCUAGGUUUGUCUCUCAACUCUCAUACUGCCAAAAGUUAAACUAUGAUGCUUA,0.61
GUGUCUACAGGCCAUCACGUGGGGAGGCGCACCAGGCGACAGAGGAUGUGGUGGCCUUCCUCCUAGGACUGAUUGGCGUCGCCGUCCUAACCCAGCUGUGGAGUUUUUGU,0.666
GCAAGGCCUCCAGGGAUGGCCCCUAGCCACAGGCCCUGGCUGAGGUCUCUGGGUCGGUCAGUGACAUGUAGGUAGGAAGCACUGAAAAUAGUGUUCCCAGAGCACUUUGC,0.319
GAUACAGCAGUAGACAUUUUAACAAGAAGAUGAAUGGCGUCCGUGGGUUGCUAACUGAACUUUGAAGACCCGCUACAAAACGCGCAGAUGUGCAGCAGAUUGGAAGGAGA,0.66
CUCCCAGUCUCACCUACCAUACUGUGCCAUCUCUAGCCAAGCAAGCCAGGUUUAGAGAAGGGUCAAAAAAAAAAAAAAGGGUUGUUUACUUCCAACUUGUUCUGAUGCCC,1.28
AGAAUCUAGUUUAAUUGUUUCAGGUAGAAAGUAUUCUUUUGAGUUUCCAUUUUGAAUGUGUUUGGACUAAAACAAUAAACUACUGAUGUCUGCAGCAUUUAUCUAUGUCC,1.91
CAUGCUGUGCUCUUGGAGCUUGUCCUGUCUUCUGGAAGCCCUGGACAAGGCGUGUGAAGGCUUCCCAGAAGUUCCUGUCCACAUUGCCUCCGCCCACCGACGCCAUGGGC,0.65
UCUCUAUGUACAUAUCUAUCUACUUCUGACUGUAGAUGGGUAUAUAGAUAGAUGCCAAGCUUCUUAUGUUCUGGGGGUAGUAUGCAUCAUUAUUGGGUCUCUGCCUUAAA,0.4

# Study 3
# Target: Interferon regulatory factor 7, full length, phosphomimetic (IRF7, Homo sapiens, UniProt Q92985, residues 1-503, S471D/S472D/S475D/S476D/S477D/S483D/S484D/S487D)
# Chain of UniProt Q92985 (whole entry, unmodified, looked up): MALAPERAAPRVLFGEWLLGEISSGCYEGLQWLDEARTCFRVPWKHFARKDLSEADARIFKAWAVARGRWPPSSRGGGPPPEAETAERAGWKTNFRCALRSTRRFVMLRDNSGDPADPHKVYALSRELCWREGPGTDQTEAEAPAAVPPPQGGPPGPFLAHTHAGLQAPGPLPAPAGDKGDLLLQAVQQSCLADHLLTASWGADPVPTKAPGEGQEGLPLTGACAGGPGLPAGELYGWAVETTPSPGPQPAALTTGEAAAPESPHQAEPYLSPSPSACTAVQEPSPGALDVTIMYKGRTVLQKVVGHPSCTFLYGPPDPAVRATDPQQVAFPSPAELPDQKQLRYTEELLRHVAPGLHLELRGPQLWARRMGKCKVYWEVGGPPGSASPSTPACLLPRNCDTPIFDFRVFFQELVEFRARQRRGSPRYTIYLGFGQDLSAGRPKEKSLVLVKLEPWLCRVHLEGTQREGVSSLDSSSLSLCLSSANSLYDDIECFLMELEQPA
# Technique: protein-binding microarray
# Molecule type: double-stranded DNA, one strand shown
# Sample: in vitro
# Tested at: 2200 nM top
# Notes: 60-bp whole probe
# With: salmon DNA 0.4 mg/ml
# Reference: random background probes
# Reading: higher = stronger binding
# All sequences stand within: GCCTAGCAC … GTCTTGATTCGCTTGACGCTGCTG
Strand,fitted relative affinity [z-score]
TTAGGACTTGGGTATCGGTTAGTGCTA,-0.0483
ATGTTTTTCATTTTGTTCATGTGCTAG,4.54
GACGGTTTCGGGATTGGGGACGTGCTA,5.35
GACGGACTGGACACTGCGGACGTGCTA,-0.336
GACGGCATCGACTTTCGGGACGTGCTA,2.16
TTAGGTTCCGGATTCGGTTAGTGCTAG,3.41
TCACAACTCTGTTTTCGACTGTGCTAG,2.7
GACGGTTCCGGGTTTCGGGACGTGCTA,3.02
GGCTGTTTGGTTCTTATCCTGTGCTAG,1.01
CTAATTTTTACTTTCTGAATGTGCTAG,3.98
TCATTTTTCCTAATTGAACTGTGCTAG,2.1
TTAGGACTGGACACTGGGTAAGTGCTA,-0.793
GACGATTTCGGGTATCCAGACGTGCTA,2.89
ATACTGAGAAAGCACTGGACGTGCTAG,-0.383
TGTGCTTTCCTCGTGATGCTGTGCTAG,1.69
GACGGACTGGATTTCGGGACGTGCTAG,0.448
GACGGTTTCGATCTCGGGACGTGCTAG,6.1
TTAGGACTGGGGTATCGGTCAGTGCTA,-0.619
CCTGGACGGGAGTGCGGTGCGTGCTAG,-1.22
TTAGGTCTCCTCATCCTTTAGTGCTAG,0.924
TTAGAACTGAGCATCGATTAGTGCTAG,-0.577
TTAGAACTTGGGTTTCGATTAGTGCTA,2.29
TCATGAAGCGCTTCTCGAACTGTGCTA,0.355
GACGGTGTCGACTTTCGGGACGTGCTA,2.65
GACGGACTGCTTTACCTGACGTGCTAG,0.663

# Study 4
# Target: RING finger protein unkempt homolog, zinc fingers 1-6, GST-SBP tag (UNK, Homo sapiens, UniProt Q9C0B0, residues 30-357)
# Technique: RNA Bind-n-Seq
# Molecule type: RNA
# Sample: in vitro
# Tested at: not given
# Notes: RNA with constant flanks, human and mouse sites, ends assumed
# Reference: input RNA pool
# Reading: higher = stronger binding
# All sequences stand within: GGGAGUUCUACAGUCCGACGAUC … CAACAGAGGAUUGAGCAUCA
# Residues (chain): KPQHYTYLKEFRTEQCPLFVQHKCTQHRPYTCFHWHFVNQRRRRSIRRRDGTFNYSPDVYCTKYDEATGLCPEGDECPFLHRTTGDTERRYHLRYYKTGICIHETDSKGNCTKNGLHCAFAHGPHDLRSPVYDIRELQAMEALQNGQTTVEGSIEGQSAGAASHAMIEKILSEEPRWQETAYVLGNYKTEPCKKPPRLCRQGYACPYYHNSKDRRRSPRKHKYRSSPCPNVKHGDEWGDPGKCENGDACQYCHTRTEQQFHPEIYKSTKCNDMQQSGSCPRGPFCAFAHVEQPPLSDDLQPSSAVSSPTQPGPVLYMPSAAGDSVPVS
Strand,bound/input enrichment [ratio]
UUUACCACUAGAGACUUCUCUAUCCGGUCCCUCGCUGACCGCCUGGGGGACCUGAAUUACCUCAUAUAUGUGUUUCCUGAUCGGCCAAAGGAUGAAGUAUAUUCUAAGUACUACACACCG,0.17
GUGAGUCCCCUACUAAUGAGGCCCUUCCCAAAGCACUGCACAGAGUACAUGAGGCCCUGGGCUGACAGCUGGCGGGAAAGACCGGUUCUGACUCAGGUGAAGUCACAGGAGUUACUCACA,0.0518
UUCCAGCGCAGCUCCUCCCUUGUUCAACACCAGCGAAUUCACACUGGAGAGAAACCCUAUCGAUGUAAUCUAUGUGGGAGGUCCUUUAGGCAUGGCACAUCCCUCACUCAACACGAGGUC,0.152
UUCAGCAGUGAUCCCUUCAAUUUCAACAGUCAAAAUGGUGUGAACAAGGAUGAGAAGGACCACUUAAUUGAGCGACUAUACAGAGAGAUCAGUGGAUUGAAGGCACAGCUAGAAAACAUG,0.689
GAACAGGAUGAUGAAGAUGAUUUAUCUGCUGGCUUGGCACUGAUUGACCUGGGUCAGAGUAUAGAUAUGAAACUUUUUCCAAAAGGAACUAUAUUCACAGCAAAGUGUGAAACAUCUGGU,0.245
CUUCUUCGAAUAGAGAAAGAGGAAUUGGAUAUGAAAGGAAGUGGUUUCUAUGUUUCUCUGGAGUGGGUCACUAUCAGUAAGAAAAAUCAAGAUAAUAAAAAAUAUGAAAUUAUUAAGCGU,2.53
CCAGUCAGUGGGAGGUAGAAAGGGUGGCAUCUGUAGCCCUCUUCAUACACAUAAGUGGCAUUUAGGUGAAUGUCCCAGCUAAUCACUAGCAUGUCUAGGUAUUGGCUGGGUAGUGGGUAU,0.924
AACAUUAACUUUCCUAAUCUCAAGCAAGAUUACCCAGACUGGUCUAGCCGAUGUAAACAAAUCAUGAAGCUCUGGAGAAAGGUUCCAGCCGCUGACAAAGCCCCCUACCUGCAAAAGGCC,0.551
GGGCAGACCCGGUGGGCUGACCUGAAGAGUGCCCUAGUCUUCAUUACUUUCACUUAUGGGUUUUCACCAGUGCUGAAGACCCUUACAGAGUCUGUCAGCACUGACACCAUCUAUGCCAUG,0.124
GUGCUCUGCGUCUCGGCCGCGCAGCCCAACAUCACCACCCUGGCUCCCAACGUGACCGAGGUGCCGACCACGACCACCAAAGUGGUCCCGACGACGCAAAUGCCCACCGUGCUACCAGAA,0.0946
CACUCCCAAGGCGUCUCCUUUAGUUAAAUGGUUUCCCCAAGGUCACCUUUUUGUAAUCGCCAUAGUUUGGGCUACAGGAUGAGACACUAUCUCCACAAACAAGGAAGCCAAUACUCUUAA,0.538

# Repeated from above (study 4):
Strand,bound/input enrichment [ratio]
GUGAGUCCCCUACUAAUGAGGCCCUUCCCAAAGCACUGCACAGAGUACAUGAGGCCCUGGGCUGACAGCUGGCGGGAAAGACCGGUUCUGACUCAGGUGAAGUCACAGGAGUUACUCACA,0.0518
UUCCAGCGCAGCUCCUCCCUUGUUCAACACCAGCGAAUUCACACUGGAGAGAAACCCUAUCGAUGUAAUCUAUGUGGGAGGUCCUUUAGGCAUGGCACAUCCCUCACUCAACACGAGGUC,0.152
UUCAGCAGUGAUCCCUUCAAUUUCAACAGUCAAAAUGGUGUGAACAAGGAUGAGAAGGACCACUUAAUUGAGCGACUAUACAGAGAGAUCAGUGGAUUGAAGGCACAGCUAGAAAACAUG,0.689
GAACAGGAUGAUGAAGAUGAUUUAUCUGCUGGCUUGGCACUGAUUGACCUGGGUCAGAGUAUAGAUAUGAAACUUUUUCCAAAAGGAACUAUAUUCACAGCAAAGUGUGAAACAUCUGGU,0.245
CUUCUUCGAAUAGAGAAAGAGGAAUUGGAUAUGAAAGGAAGUGGUUUCUAUGUUUCUCUGGAGUGGGUCACUAUCAGUAAGAAAAAUCAAGAUAAUAAAAAAUAUGAAAUUAUUAAGCGU,2.53
CCAGUCAGUGGGAGGUAGAAAGGGUGGCAUCUGUAGCCCUCUUCAUACACAUAAGUGGCAUUUAGGUGAAUGUCCCAGCUAAUCACUAGCAUGUCUAGGUAUUGGCUGGGUAGUGGGUAU,0.924
AACAUUAACUUUCCUAAUCUCAAGCAAGAUUACCCAGACUGGUCUAGCCGAUGUAAACAAAUCAUGAAGCUCUGGAGAAAGGUUCCAGCCGCUGACAAAGCCCCCUACCUGCAAAAGGCC,0.551
GGGCAGACCCGGUGGGCUGACCUGAAGAGUGCCCUAGUCUUCAUUACUUUCACUUAUGGGUUUUCACCAGUGCUGAAGACCCUUACAGAGUCUGUCAGCACUGACACCAUCUAUGCCAUG,0.124
GUGCUCUGCGUCUCGGCCGCGCAGCCCAACAUCACCACCCUGGCUCCCAACGUGACCGAGGUGCCGACCACGACCACCAAAGUGGUCCCGACGACGCAAAUGCCCACCGUGCUACCAGAA,0.0946
